Experimental data from different studies.
Numbered parts are unrelated; each lists some results of a single study. Substitutions count along the parent as printed.

Series 1 — technique: universal PBM; molecule type: double-stranded DNA, one strand shown; matrix: in vitro; concentration: not given; direction: higher = stronger binding
Target: Sal-like protein 4, full length isoform B (SALL4, Homo sapiens, UniProt Q9UJQ4-2, residues 1-616)
Setting: 8-mer, flanks averaged, mean of replicates
Oligonucleotide	E-score
CGATGACC	-0.163
AGTGCGTC	-0.168
AGTGCGAA	-0.181
GAAGTTCC	-0.269
ACTCAGAG	-0.106
TGCATGCA	0.211
AGCTTACT	-0.0096
CTGGACTA	-0.135
CTCCGCCC	-0.25
CGTAAATC	0.0825
TACAAGTA	0.234
GCAGTACA	-0.151
AATGGTTG	0.0555
ACTTGTTG	0.0312
ATCCTGGA	-0.0572
CCTTGATA	0.219
ACCAGCTG	-0.283
ACGTCTCA	0.0259
AACCCTAA	0.00467

Series 2 — technique: RNA Bind-n-Seq; molecule type: RNA; matrix: in vitro; concentration: 1 µM; setting: whole 134-nt RNA, ends assumed; added: 150 mM KCl; relative to: input library; direction: higher = stronger binding
Target: Ras GTPase-activating protein-binding protein 1, C-terminal RGG region (G3BP1, Homo sapiens, UniProt Q13283)
Sequence of UniProt Q13283 (whole entry, looked up): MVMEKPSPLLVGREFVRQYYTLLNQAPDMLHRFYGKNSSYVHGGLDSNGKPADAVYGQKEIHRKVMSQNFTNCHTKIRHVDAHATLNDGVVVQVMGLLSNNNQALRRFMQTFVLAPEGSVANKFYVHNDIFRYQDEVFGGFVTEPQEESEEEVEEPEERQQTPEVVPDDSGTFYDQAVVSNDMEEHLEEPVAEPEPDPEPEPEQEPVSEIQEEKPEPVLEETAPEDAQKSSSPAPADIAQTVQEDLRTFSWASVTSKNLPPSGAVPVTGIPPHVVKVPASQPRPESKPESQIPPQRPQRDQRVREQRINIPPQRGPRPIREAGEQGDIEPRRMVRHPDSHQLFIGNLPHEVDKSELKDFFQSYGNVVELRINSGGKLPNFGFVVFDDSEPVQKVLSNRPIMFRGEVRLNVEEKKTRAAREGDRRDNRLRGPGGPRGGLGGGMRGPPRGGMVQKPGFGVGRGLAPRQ
Shared flanks, not repeated: GGGAGUUCUACAGUCCGACGAUC … UGGAAUUCUCGGGUGUCAAGG
Oligonucleotide	log2 enrichment
GUCCUGUGCUACACAUCGUAUGUACCGAAUCGGGCCCCCGGCCCCCGGGGCCCCCGGGAAAGUAUUAUGUUACGCCGUUCGGAUCUGCAC	-1.8
UGAUCUCCAGGAUGACAUGCGAAGAUGCCAAAUCAUCCGAGACAUGAUUGGACCGGAAAAGACUUUGGUAAAUAUCCUCUCACACCACUA	-1.38
UCAAGUCCUGUGCUACACAUCGUAUGUACCGAAUCGGGAAAGGGAAAGGGAAAGGAAAGUAUUAUGUUACGCCGUUCGGAUCUGCACUUC	-1.51
GUCCUGUGCUACACAUCGUAUGUACCGAAUCGGGGCCCCCGGCCCCCGGCCCCCGGGGAAAGUAUUAUGUUACGCCGUUCGGAUCUGCAC	-1.35
CCUGUGCUACACAUCGUAUGUACCGAAUCGGAAAAAAGGGGAAAAAAGGGGAAAAAAGGGAAAGUAUUAUGUUACGCCGUUCGGAUCUGC	-1.41
GCAGGAAGUAAAAACAAAUGGAAAUGCUUCGGAUAGUGGCAGGGGUGGGGGUUGCUAAGGAAAGGGUGCGAUGGGAGUGGGUAAAGAGUU	1.82
GGAAGGGGGCUUGCGCCACGGCAGUGAAUCUUCAUGGAUCUUCAUGCAGCCAUACAAACCCUGGUUCCAACAGAAUGGUGAAUUUUCGAC	-1.38
UGGGAGGUGGAUUUUGUUUAUUUUUUUAGCUCAUUUCCAGGGGUGGGAAUUUUUUUUUAGUAUGUGUCAUGAAUAAAGUUGUUUUUGAAA	3.07
UAACUUUAGAGGAGGAUCUGAGGGAUAUGGCAGUGGACGUGGAUUUGGGGAUGGCUAUAAUGGGUAUGGAGGAGGACCUGGAGGUGGCAA	0.559
UCCUGUGCUACACAUCGUAUGUACCGAAUCGGGAAAAAGGGUUUUUGGGAAAAAAAGGGAAAGUAUUAUGUUACGCCGUUCGGAUCUGCA	-0.871

Series 3 — target: JUND, bZIP domain (human); technique: DHFR protein complementation; matrix: yeast; relative to: wild-type JUN-FOS pair; direction: higher = stronger binding
Setting: single substitutions, most at no-binding floor
Starting sequence: JUN, bZIP domain (human); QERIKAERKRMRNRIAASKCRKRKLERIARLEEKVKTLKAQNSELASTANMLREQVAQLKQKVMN; partner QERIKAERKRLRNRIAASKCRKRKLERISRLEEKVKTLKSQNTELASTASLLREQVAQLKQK
Substitution	binding fitness [natural log]
A40N	-0.895
S47Y	-0.76
K34N	-0.921
A29M	-1.07
Q41E	-0.559
T37Y	-0.549
K34L	-0.265
Q58S	-0.634
E44R	-0.981
E54V	-1.07
K39F	-1.19
E32L	-0.973
M51L	-0.621
E54R	-0.879
K34V	-0.578
A40L	-0.866
K39T	-0.378
K34C	-0.6
S47C	-0.685
K39M	-0.633
S43W	-0.996

Series 4 — technique: RNA Bind-n-Seq; molecule type: RNA; matrix: in vitro; concentration: 365 nM; relative to: no-protein control; direction: higher = stronger binding
Target: RNA binding protein fox-1 homolog 2, RRM domain, GST-SBP tag (RBFOX2, Homo sapiens, UniProt O43251-10, residues 100-194)
Setting: natural RNA segment, single round, ends assumed
Shared flanks, not repeated: GGGAGUUCUACAGUCCGACGAUC … UGGAAUUCUCGGGUGCCAA
Target sequence (chain): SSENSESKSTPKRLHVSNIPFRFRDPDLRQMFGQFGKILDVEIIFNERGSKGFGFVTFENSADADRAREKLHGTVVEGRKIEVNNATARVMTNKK
Oligonucleotide	RBNS enrichment (R)
GUUUUAAGUUUAGAUUUCACCGUGUCUUAGUGCUUCAUUCUAUUGGUUUAUUGGAACAUGUAAUAAAUAGGAGUAGUGAUGUAUUAAAACACAAGUAUUCAUUAAUGUUU	1.18
AAGCAAAGUAUCAACGCUUUCUGAUUUCCAGUACUGGGUGUUGAACCCAGAGCCUUUUAUAUGCUGGGCAAGUGCUCUACAGUUUUCACUCUUUAUUCUGAGACAGGGUC	0.338
CUUCUUCUCUUUCUUUCUUUUUUUUUAUGGUUGGAAGAAAAAAGAUUCUUUGACUAGUGAAAAUCUCAUAAAAUUUAAAUACGUGUGAGUAAAACACAUGCCUGAACACA	0.782
AGCAGUAAGUAGCACACCCAUCACUUAGACAAAUACCCAAGGGAGUUCUGCUCACCGAUAUUUGCCCGGCCCCUGGAAGAGGAAACCUUUCGAAAGCUAAUAUCCCAGAA	0.23
UUCCUCCUCCACAUCAUCCCCACGACCCUUCUAACUCCUGGCCUCUUCCAGCCAAAACGGGAAAAGUGGCUGACUUCACUGCAUUAGAAGAGGAAAAGUCCAACUCCUUA	0.943
CCUCUGUCGUGUGUGCUGAUUUGAGUGGCUUAGCUUGCCACAGCGCAGCCUCUUCUGUCCCUUUCAGUCAUUUGCUGUACUUCCCUGUGGCACGUUACCAUGGAAGCCGC	0.274
UGUCUGUCUGUACGUUUAAUUGAUAGCACCUCUGCCGUGUGUCAUCAACUACUAGACAGCCAGGCUAAGCCUUCUCAUUCUGUUCUGAAGAUUCUAAAAAAAUUCGAACC	0.271
ACCGCGAGCACAUUGCAGCCCCAACGGUGGCCCAUCUUCAGCGGAGAGCGAGAACCAUUUUGGAAACUGUAAUGUAACUUAUUUUUUCCUUUAACCUCGUCAUCAUUUUC	0.215
AUCUGUGAUGCUCUGUCCCAAGCCAUGGGGAUCUAGAGGUGAAUCAGAAAUAGCCUCAGAAACUGAGGGUUUCAUAGUUGGAAGGAAGAAAUGGUCAUAAACACAAAUCA	0.245
UGCUCUCUACCAUGAAAGUGUAAAUACUGUAAUGUCUAAUCUAUUUAUCACAACUGACUACUGGACCAGGGCCCAGAAAUGUGGGUCAAGUUACAUGUGAAUUUGUUUGG	0.43
AAGAACAUAAGCUUUCUCGUAUAUACCUGUAUGCUACAGUUUUUCACAUGGAAUUCCGUUUUCUGAGGUACAGCACAUUUUAGGUAACAGUAUUUAACUUGAAAUUCAUC	0.509
AAAGUCUUGGUUUGUCUUGCUGCUGUAAAAGGCCUUUCCAAACCCCUCCUUUUAUUCCUGUUUCCCGAAAUAAGGUAUUUGUAGAGUUAAGGACCUACUGCAUGCCUGUC	5.52

A few entries again (series 3):
Substitution	binding fitness [natural log]
Q41E	-0.559
E44R	-0.981
K39F	-1.19
K34V	-0.578
E54V	-1.07
